Experimental data gathered from unrelated publications.
Compare with care: the assays were run in different laboratories. Several values in a cell are separate wells, animals, samples, runs or records. ± marks the error that the study gave.

The compound remaining of `C#Cc1c(F)ccc2cc(O)cc(-c3ncc4c(N5CC6CCC(C5)N6C(=O)OC(C)OC(=O)C5CCOCC5)nc(OC[C@@]56CCCN5C[C@H](F)C6)nc4c3F)c12` (some centres unmarked) is reported as 106% (chemical stability; simulated intestinal fluid; 1 µM, 30 min).
For `C=Cc1c(C)c2cc3nc(c(CC(=O)[O-])c4[n-]c(cc5nc(cc1[n-]2)C(C)=C5CC)c(C)c4C(=O)[O-])C(CCC(=O)[O-])C3C.[Cu+2].[Na+].[Na+].[Na+]` (centres unmarked), the haemoglobin was 13.9 ± 1.21 g/dL (Wistar rat, female; oral, 250 mg/kg daily, 28 days).
For `CSCC[C@H](N)C(=O)N[C@@H](C)C(=O)N[C@@H](Cc1c[nH]c2ccccc12)C(=O)N[C@@H](Cc1c[nH]cn1)C(=O)N[C@@H](CC(=O)O)C(=O)N[C@@H](CC(=O)O)C(=O)N[C@@H](CCC(=O)O)C(=O)N[C@@H](CCC(=O)O)C(=O)N[C@@H](Cc1ccccc1)C(=O)N[C@@H](C)C(=O)N[C@@H](CCCNC(=N)N)C(=O)N[C@@H](CCCNC(=N)N)C(=O)N[C@@H](CCCNC(=N)N)C(=O)N[C@@H](CCCNC(=N)N)C(=O)NCCCCCC(=O)NCCCCC(NC(=O)CCCCCNC(=O)[C@H](CCCNC(=N)N)NC(=O)[C@H](CCCNC(=N)N)NC(=O)[C@H](CCCNC(=N)N)NC(=O)[C@H](CCCNC(=N)N)NC(=O)[C@H](C)NC(=O)[C@H](Cc1ccccc1)NC(=O)[C@H](CCC(=O)O)NC(=O)[C@H](CCC(=O)O)NC(=O)[C@H](CC(=O)O)NC(=O)[C@H](CC(=O)O)NC(=O)[C@H](Cc1c[nH]cn1)NC(=O)[C@H](Cc1c[nH]c2ccccc12)NC(=O)[C@H](C)NC(=O)[C@@H](N)CCSC)C(=O)NCCCCC(NC(=O)C(CCCCNC(=O)CCCCCNC(=O)[C@H](CCCNC(=N)N)NC(=O)[C@H](CCCNC(=N)N)NC(=O)[C@H](CCCNC(=N)N)NC(=O)[C@H](CCCNC(=N)N)NC(=O)[C@H](C)NC(=O)[C@H](Cc1ccccc1)NC(=O)[C@H](CCC(=O)O)NC(=O)[C@H](CCC(=O)O)NC(=O)[C@H](CC(=O)O)NC(=O)[C@H](CC(=O)O)NC(=O)[C@H](Cc1c[nH]cn1)NC(=O)[C@H](Cc1c[nH]c2ccccc12)NC(=O)[C@H](C)NC(=O)[C@@H](N)CCSC)NC(=O)CCCCCNC(=O)[C@H](CCCNC(=N)N)NC(=O)[C@H](CCCNC(=N)N)NC(=O)[C@H](CCCNC(=N)N)NC(=O)[C@H](CCCNC(=N)N)NC(=O)[C@H](C)NC(=O)[C@H](Cc1ccccc1)NC(=O)[C@H](CCC(=O)O)NC(=O)[C@H](CCC(=O)O)NC(=O)[C@H](CC(=O)O)NC(=O)[C@H](CC(=O)O)NC(=O)[C@H](Cc1c[nH]cn1)NC(=O)[C@H](Cc1c[nH]c2ccccc12)NC(=O)[C@H](C)NC(=O)[C@@H](N)CCSC)C(N)=O` (some centres unmarked), “mean tissue distribution” read 0.87% (C57BL/6 mouse female, thymus; dose not given, 3 h; baseline: total).
For `CN1Cc2cc(Cl)ccc2-n2c(nnc2C2CCN(c3cccc([18F])n3)CC2)C1`, “total volume of distribution” read 1.01 ± 0.3 mL/cm3 (PET two-tissue compartment model; rhesus monkey, hippocampus; intravenous, dose not given, 70 min scan, baseline scan).
For `N#[11C]c1ccc(-c2csc(NN=C3CCCC3)n2)cc1`, the unchanged compound was 13.4% and 13% (radio-HPLC; C57BL/6 mouse, liver; intravenous, 37 MBq, 5 min).
The tissue concentration of `CC(=O)NCCCC[C@@H]1NC(=O)[C@H](Cc2c[nH]c3c(C)cccc23)NC(=O)[C@H]([C@@H](C)O)NC(=O)[C@H](CC(N)=O)NC(=O)[C@@H](NC(C)=O)C(C)(C)SSC(C)(C)[C@@H](C(=O)N[C@@H](Cc2ccc(OCCN)cc2)C(=O)N[C@@H](Cc2ccc3ccccc3c2)C(=O)NC2(C(=O)N[C@@H](CCC(=O)O)C(=O)N[C@@H](CC(N)=O)C(=O)N[C@@H](Cc3cccnc3)C(=O)N(C)CC(N)=O)CCOCC2)NC1=O` is reported as 48% (cynomolgus monkey, colon; intravenous, 1 mg/kg; baseline: plasma concentration).
With `CC(C)=CCC/C(C)=C\CCn1cc(CC(P(=O)(O)O)P(=O)(O)O)nn1` the fraction unbound was 0.063 (equilibrium dialysis; mouse plasma; 1 µg/mL, 4 h).
For `CC[C@H](C)[C@H](NC(=O)[C@H](CCCCN)NC(=O)CNC(=O)[C@H](CC(C)C)NC(=O)[C@H](Cc1ccccc1)NC(=O)[C@H](CCCCN)NC(=O)[C@H](CO)NC(=O)[C@H](Cc1ccccc1)NC(=O)[C@H](Cc1c[nH]c2ccccc12)NC(=O)[C@H](CCC(N)=O)NC(=O)[C@@H](NC(=O)[C@H](Cc1ccccc1)NC(=O)CCCCCNC(=O)CN1CCN(CC(=O)O)CCN(CC(=O)O)CCN(CC(=O)O)CC1)C(C)C)C(=O)N[C@@H](CCC(=O)O)C(=O)N1CCC[C@H]1C(=O)N[C@@H](CC(=O)O)C(=O)N[C@H](C(=O)N[C@@H](CO)C(=O)N[C@@H](CCC(N)=O)C(=O)N[C@H](C(=O)N[C@@H](CCC(N)=O)C(=O)N[C@@H](CC(=O)O)C(=O)N1CCC[C@H]1C(=O)N[C@@H](CC(N)=O)C(=O)N[C@@H](CC(=O)O)C(=O)N[C@@H](CCC(N)=O)C(=O)N[C@@H](Cc1ccc(O)cc1)C(=O)N[C@@H](CCC(=O)O)C(=O)N1CCC[C@H]1C(=O)N[C@@H](Cc1ccccc1)C(=O)O)C(C)C)C(C)C` [copper-64 labelled], the SUVmean was 3.2 SUV (dynamic PET; mouse both sexes, CT26 tumour, checkpoint inhibitor-treated, tumour; intravenous, 100 µCi/mouse, 390 s).
The tumour uptake of `CCCC[C@H]1C(=O)N(C)[C@@H](CCCC)C(=O)N[C@@H](CCCNC(=O)CN2CCN(CC(=O)O)CCN(CC(=O)O)CCN(CC(=O)O)CC2)C(=O)N[C@H](C(=O)NCC(N)=O)CSCC(=O)N[C@@H](Cc2ccc(O)cc2)C(=O)N(C)[C@@H](C)C(=O)N[C@@H](CC(N)=O)C(=O)N2CCC[C@H]2C(=O)N[C@@H](Cc2c[nH]cn2)C(=O)N[C@@H](CC(C)C)C(=O)N(C)CC(=O)N[C@@H](Cc2c[nH]c3ccccc23)C(=O)N[C@@H](CO)C(=O)N[C@@H](Cc2c[nH]c3ccccc23)C(=O)N1C` [gallium-68 labelled] is reported as 7.61 ± 0.67 %ID/g (NOD/SCID mice, CHO-hPD-L1 xenograft, tumour; 30 min p.i.).
`CCCCCCCCCCCC(=O)C(C)C(=O)N1CCC[C@H]1C(=O)NC(C)(C)C(=O)NC(C)(C)C(=O)NC(C)(C)C(=O)N[C@](C)(CC)C(=O)NCCC(=O)N[C@@H](C)C(=O)N[C@](C)(CC)C(=O)N[C@@H](C)C(=O)N[C@@H](CC(C)C)C(=O)N[C@](C)(CC)C(=O)NCCC(=O)N[C@@H](C)C(=O)N[C@](C)(CC)C(=O)NCCC(=O)N[C@@H](C)C(=O)NC(C)(C)C(=O)NC(C)(C)C(=O)NC(C)(C)C(=O)N[C@@H](C)C(=O)N[C@@H](CC(=O)O)C(=O)O` (some centres unmarked): “remaining intact peptide” 66.1% and 73.5% (LC-MS; buffer with human neutrophil elastase; 40 µM, 60 min, pH 7.5, 37 °C; baseline: 0 h).
`O=C1NC2(CC2)COc2ncc(F)cc2[C@H]2COCCN2c2ccn3ncc1c3n2`: “organ-to-brain weight ratio” 5.6 ± 0.69% (Sprague-Dawley rat, female, ovaries; oral, 2.5 mg/kg/day, 4 weeks dosing, end of recovery).
For `CC(C)C[C@@H](NC(=O)[C@@H](CCCCN)NC(=O)CNC(=O)CNC(=O)[C@@H]1CSSC[C@H](N)C(=O)NCC(=O)N[C@@H](CCCNC(=N)N)C(=O)N[C@@H](CCCNC(=N)N)C(=O)N[C@@H](C)C(=O)NCC(=O)NCC(=O)N[C@@H](CO)C(=O)N1)C(=O)N[C@H](C)C(=O)N[C@H](CCCCN)C(=O)N[C@H](CC(C)C)C(=O)N[C@H](C)C(=O)N[C@H](CCCCN)C(=O)N[C@H](CCCCN)C(=O)N[C@H](CC(C)C)C(=O)N[C@H](C)C(=O)N[C@H](CCCCN)C(=O)N[C@H](CC(C)C)C(=O)N[C@H](C)C(=O)N[C@H](CCCCN)C(=O)O`, the clearance was 0.0488 ± 0.00917 mL/min (mouse; intravenous, 15.0 mg/kg).
With `CC(=O)CCC1C(=O)NC(C(C)C)C(=O)NC(Cc2cc(O)cc(F)c2)C(=O)N2CCCC(N2)C(=O)OC(C(C)=CC=CC(=O)N2CCCCO2)CC=CC=CC(O)C(C)C1O` (centres unmarked) the total bilirubin was 4.4 µM (CD-1 mice, serum; oral, 50 mg/kg repeated, day 7).
With `CC(C)C[C@@H](NC(=O)[C@@H](CCCNC(=N)N)NC(=O)[C@@H](Cc1c[nH]cn1)NC(=O)[C@@H](Cc1c[nH]c2ccccc12)NC(=O)[C@@H](Cc1c[nH]cn1)NC(=O)[C@@H](Cc1ccccc1)NC(=O)[C@H](NC(=O)[C@@H](Cc1ccc(O)cc1)NC(=O)CNC(=O)CNC(=O)CCOCCOCCOCCNC(=O)CN1CCN(CC(=O)O)CCN(CC(=O)O)CC1)[C@H](C)O)C(=O)N[C@H](CC(N)=O)C(=O)N1CCC[C@@H]1C(=O)O` [gallium-68 labelled] the absorbed dose was 0.0103 ± 0.0001 mSv/MBq (human female, from C57BL/6 mouse, breasts).

Repeated from above:
With `CC(C)=CCC/C(C)=C\CCn1cc(CC(P(=O)(O)O)P(=O)(O)O)nn1` the fraction unbound was 0.063 (equilibrium dialysis; mouse plasma; 1 µg/mL, 4 h).
